Published values collected from several papers.
Each numbered part is a random draw from the data of one study; scales do not carry over between parts. Substitutions count along the parent as printed.
Chain of UniProt O24410 (whole entry, looked up): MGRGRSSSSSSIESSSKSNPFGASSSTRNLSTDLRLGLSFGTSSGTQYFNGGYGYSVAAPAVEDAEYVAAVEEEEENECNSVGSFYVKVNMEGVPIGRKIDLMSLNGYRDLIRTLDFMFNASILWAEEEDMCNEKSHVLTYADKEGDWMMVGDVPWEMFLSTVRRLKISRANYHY
Chain of UniProt Q84WU6 (whole entry, looked up): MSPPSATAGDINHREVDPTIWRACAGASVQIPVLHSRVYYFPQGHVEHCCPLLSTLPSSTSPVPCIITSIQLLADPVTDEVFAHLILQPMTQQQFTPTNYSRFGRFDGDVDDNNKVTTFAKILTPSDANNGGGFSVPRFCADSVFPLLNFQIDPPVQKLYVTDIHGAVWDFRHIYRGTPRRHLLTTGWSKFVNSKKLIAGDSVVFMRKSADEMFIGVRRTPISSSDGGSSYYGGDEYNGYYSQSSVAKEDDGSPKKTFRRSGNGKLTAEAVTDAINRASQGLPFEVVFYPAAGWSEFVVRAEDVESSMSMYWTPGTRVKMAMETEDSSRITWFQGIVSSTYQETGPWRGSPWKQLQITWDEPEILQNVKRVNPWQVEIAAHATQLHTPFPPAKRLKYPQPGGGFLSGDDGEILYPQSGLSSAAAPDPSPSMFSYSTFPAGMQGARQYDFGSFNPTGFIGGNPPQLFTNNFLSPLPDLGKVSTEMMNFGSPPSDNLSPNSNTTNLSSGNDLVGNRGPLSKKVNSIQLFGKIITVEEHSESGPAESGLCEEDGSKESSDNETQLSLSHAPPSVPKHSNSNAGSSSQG
Chain of UniProt Q94JM3 (whole entry, looked up): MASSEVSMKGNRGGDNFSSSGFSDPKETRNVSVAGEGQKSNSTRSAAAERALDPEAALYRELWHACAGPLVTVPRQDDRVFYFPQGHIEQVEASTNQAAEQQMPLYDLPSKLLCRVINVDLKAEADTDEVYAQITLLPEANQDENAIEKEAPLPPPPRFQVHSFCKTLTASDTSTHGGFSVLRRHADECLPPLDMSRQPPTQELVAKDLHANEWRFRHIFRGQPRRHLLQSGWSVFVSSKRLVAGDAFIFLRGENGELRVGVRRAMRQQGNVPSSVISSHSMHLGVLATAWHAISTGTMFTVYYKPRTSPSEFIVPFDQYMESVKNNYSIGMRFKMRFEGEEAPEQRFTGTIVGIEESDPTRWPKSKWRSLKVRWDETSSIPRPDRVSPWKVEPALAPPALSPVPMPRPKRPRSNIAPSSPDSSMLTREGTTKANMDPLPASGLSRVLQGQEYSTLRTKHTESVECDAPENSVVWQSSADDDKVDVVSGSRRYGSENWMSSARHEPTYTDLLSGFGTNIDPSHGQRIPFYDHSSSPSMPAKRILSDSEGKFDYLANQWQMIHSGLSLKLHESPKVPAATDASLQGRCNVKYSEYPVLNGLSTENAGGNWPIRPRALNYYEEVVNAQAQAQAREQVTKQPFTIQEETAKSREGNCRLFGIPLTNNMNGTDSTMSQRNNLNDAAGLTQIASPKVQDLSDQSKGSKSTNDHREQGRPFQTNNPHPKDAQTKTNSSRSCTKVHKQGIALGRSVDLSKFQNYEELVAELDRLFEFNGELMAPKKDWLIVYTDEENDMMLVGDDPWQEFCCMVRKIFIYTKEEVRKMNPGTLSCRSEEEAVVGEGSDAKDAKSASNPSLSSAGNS
Chain of UniProt Q8RYC6 (whole entry, looked up): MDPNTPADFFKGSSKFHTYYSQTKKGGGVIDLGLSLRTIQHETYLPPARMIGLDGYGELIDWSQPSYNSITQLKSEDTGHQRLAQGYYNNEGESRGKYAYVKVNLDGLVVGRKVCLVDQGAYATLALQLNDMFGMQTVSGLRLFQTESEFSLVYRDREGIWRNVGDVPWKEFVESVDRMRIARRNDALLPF
Chain of UniProt O24409 (whole entry, looked up): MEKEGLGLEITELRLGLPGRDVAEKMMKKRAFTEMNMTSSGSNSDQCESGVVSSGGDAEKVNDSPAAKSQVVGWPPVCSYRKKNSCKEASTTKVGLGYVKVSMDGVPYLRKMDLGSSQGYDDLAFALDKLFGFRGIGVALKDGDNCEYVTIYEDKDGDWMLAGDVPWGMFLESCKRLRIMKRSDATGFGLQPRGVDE
Chain of UniProt Q93WC4 (whole entry, looked up): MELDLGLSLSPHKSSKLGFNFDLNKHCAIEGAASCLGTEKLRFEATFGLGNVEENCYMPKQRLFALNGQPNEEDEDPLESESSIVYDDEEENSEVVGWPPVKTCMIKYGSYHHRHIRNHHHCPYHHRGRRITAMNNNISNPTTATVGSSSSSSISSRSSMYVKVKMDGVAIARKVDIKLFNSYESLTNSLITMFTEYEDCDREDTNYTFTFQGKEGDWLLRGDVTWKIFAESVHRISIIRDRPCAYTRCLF

Series 1 — target: UBE2W UBC core domain (UniProt Q96B02); technique: yeast two-hybrid; sample: yeast; setting: mostly zero background; baseline: not given; reading: higher = stronger interaction
B1: NFX1 RING domain (UniProt Q12986); chain IEQLTTEKYECMVCCELVRVTAPVWSCQSCYHVFHLNCIKKWARSPASQADGQSGWRCPACQNVSAHVPNTY
B2: VPS8 RING domain (UniProt Q8N3P4); chain TRGLNPKQDYCSICLQQYKRRQEMADEIIVFSCGHLYHSFCLQNKECTVEFEGQTRWTCYKCSSSNKVGKLSE
B3: ZNRF4 RING domain (UniProt Q8WWF5); chain VRTFTWHNDLCAICLDEYEEGDQLKILPCSHTYHCKCIDPWFSQAPRRSCPVCKQSVAATEDSF
B4: ARIH2 RING domain (UniProt O95376); chain HVPTSHPPHHCAVCMQFVRKENLLSLACQHQFCRSCWEQHCSVLVKDGVGVGVSCMAQDCPLRTPEDFVF
Target sequence (chain): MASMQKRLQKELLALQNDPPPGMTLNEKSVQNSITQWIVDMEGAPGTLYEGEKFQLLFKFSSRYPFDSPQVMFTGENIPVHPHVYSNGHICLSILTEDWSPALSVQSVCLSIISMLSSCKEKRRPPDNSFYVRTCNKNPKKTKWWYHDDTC
`LEALSSDFLACKICLEQLRAPKTLPCLHTYCQDCLAQLADGGRVRCPECRETVPVPPEGV (TRIM56 RING domain (UniProt Q9BRZ2))` — result for “lacZ reporter activity”: 0.
Under “lacZ reporter activity”, `B1 (NFX1 RING domain)` is recorded as 0.
For `FDPPLESKYECPICLMALREAVQTPCGHRFCKACIIKSIRDAGHKCPVDNEILLENQLFP (TRAF6 RING domain (UniProt Q9Y4K3))`, “lacZ reporter activity” read 0.
For `B2 (VPS8 RING domain)`, “lacZ reporter activity” read 0.
For `EIKEYKARLTCPCCNTRKKDAVLTKCFHVFCFECVRGRYEARQRKCPKCNAAFGAHDFHR (RNF40 RING domain (UniProt O75150))`, “lacZ reporter activity” read 0.
For `B3 (ZNRF4 RING domain)`, “lacZ reporter activity” read 10400.
Under “lacZ reporter activity”, `B4 (ARIH2 RING domain)` is recorded as 0.

Series 2 — Sequence: B5 (IAA18); technique: two-hybrid; reading: higher = firmer interaction
B5: IAA18 (Arabidopsis thaliana, UniProt O24408); chain MEGYSRNGEISPKLLDLMIPQERRNWFHDEKNSVFKTEEKKLELKLGPPGEEDDDESMIRHMKKEPKDKSILSLAGKYFSPSSTKTTSHKRTAPGPVVGWPPVRSFRKNLASGSSSKLGNDSTTSNGVTLKNQKCDAAAKTTEPKRQGGMFVKINMYGVPIGRKVDLSAHNSYEQLSFTVDKLFRGLLAAQRDFPSSIEDEKPITGLLDGNGEYTLTYEDNEGDKMLVGDVPWQMFVSSVKRLRVIKTSEISSALTYGNGKQEKMRR
It gave 1 for positive tests (ARF2 727-859 (Arabidopsis thaliana, UniProt Q94JM3); baseline: out of 4 tests).
The positive tests was 0 (ARF17 (Arabidopsis thaliana, UniProt Q84WU6); weak activation fusion; baseline: out of 3 tests).
For IAA32 (Arabidopsis thaliana, UniProt Q8RYC6); baseline: out of 4 tests: positive tests read 0.
For IAA19 (Arabidopsis thaliana, UniProt O24409); baseline: out of 4 tests: positive tests read 1.
For IAA20 (Arabidopsis thaliana, UniProt O24410); weak activation fusion; baseline: out of 4 tests: positive tests read 2.
IAA29 (Arabidopsis thaliana, UniProt Q93WC4); baseline: out of 4 tests — positive tests: 0.

Series 3 — technique: protein binding microarray; molecule type: double-stranded DNA, one strand shown; sample: in vitro; tested at: not given; baseline: not given; reading: higher = stronger binding
Target: Histone acetyltransferase KAT6A, winged helix 2, GST fusion (KAT6A, Homo sapiens, UniProt Q92794, residues 85-181)
Setting: 8-mer, flanks averaged, mean of 2 arrays, mostly near background
Construct (chain): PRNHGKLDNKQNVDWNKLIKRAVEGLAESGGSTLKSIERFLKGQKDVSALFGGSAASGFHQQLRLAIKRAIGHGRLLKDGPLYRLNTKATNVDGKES
With `AGGTTGAG` the E-score was -0.121.
`CTGACGTA` has an E-score of -0.132.
For `AGATCTGG`, the E-score was -0.0475.
For `GTATAGAC`, the E-score was -0.105.
`CCGAGTCC` gave an E-score of 0.201.
For `AGCGATGC`, the E-score was -0.0408.
The E-score of `GACCTCCC` is reported as 0.0543.
The E-score of `AAGGGGGC` is reported as 0.0858.

Series 4 — target: CCNE1, cyclin fold, Cln2 fusion (human); technique: yeast growth competition, sequencing; sample: yeast; setting: strong parent motif; baseline: not given; reading: higher = stronger binding
Starting sequence: viral docking peptide; YKVKRRLVFGADD; partner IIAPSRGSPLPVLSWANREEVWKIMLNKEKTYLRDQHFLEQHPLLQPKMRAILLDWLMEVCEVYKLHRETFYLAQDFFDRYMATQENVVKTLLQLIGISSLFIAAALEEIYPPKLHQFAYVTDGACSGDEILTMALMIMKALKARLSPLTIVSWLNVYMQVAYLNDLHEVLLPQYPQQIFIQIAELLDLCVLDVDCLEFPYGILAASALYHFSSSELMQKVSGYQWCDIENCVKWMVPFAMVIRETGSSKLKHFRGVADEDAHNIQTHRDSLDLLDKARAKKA
`G10W`: “normalised enrichment score” 3.59.
`R5V` — result for “normalised enrichment score”: 0.483.
`L7F` — result for “normalised enrichment score”: 0.584.
Under “normalised enrichment score”, `F9I` is recorded as 0.777.
Under “normalised enrichment score”, `V3G` is recorded as 1.95.
Under “normalised enrichment score”, `L7G` is recorded as 0.0389.
`V3F` — result for “normalised enrichment score”: 3.68.
Under “normalised enrichment score”, `K2D` is recorded as 5.46.
Under “normalised enrichment score”, `A11P` is recorded as 6.59.
`D12E`: “normalised enrichment score” 5.71.
`V3Q` — result for “normalised enrichment score”: 0.638.
`V3P` — result for “normalised enrichment score”: 1.39.
`L7Y` — result for “normalised enrichment score”: 0.109.

For quick reference, copied from above (series 4):
`G10W`: “normalised enrichment score” 3.59.
`R5V` — result for “normalised enrichment score”: 0.483.
`L7F` — result for “normalised enrichment score”: 0.584.
